Published values of several laboratories.
± marks the error that the study gave.

Compound	item	host	matrix	route	dose	added	AUC(0-last)
Cc1ccc2c(c1)C(=O)[C@]1(O)CCN(c3ccc4nc(C)ccc4c3)C1=N2.Cl	–	mouse	brain	subcutaneous	5 mg/kg	–	5.4 ± 0.8 µM·h
O=C(COc1ccc(N2C(=O)[C@@H]3[C@@H]4C=C[C@@H]([C@H]5C[C@@H]45)[C@@H]3C2=O)cc1)c1cc(Cl)cc(Cl)c1	–	mouse	brain	ip	10 mg/kg	–	720000 ng·min/g
COc1ccc2c3c1O[C@H]1C[C@@H](OC(=O)c4ccccc4)C=C[C@@]31CCN(C)C2	–	Swiss albino mouse	brain	intravenous	3.0 mg/kg	–	151000 ng·min/g
CC[C@H](C)[C@@H]1NC(=O)[C@@](C)(NC(=O)[C@H](CCCNC(=N)N)NC(=O)[C@H](CC(C)C)NC(=O)[C@@H](NC(=O)[C@H](CCC(N)=O)NC(=O)[C@H](CC(C)C)NC(C)=O)[C@@H](C)O)CCCC=CCCC[C@@](C)(C(=O)N[C@@H](CC(C)C)C(=O)N[C@@H](Cc2ccc3ccccc3c2)C(N)=O)NC(=O)[C@H](CCCNC(=N)N)NC(=O)[C@H](CCC(N)=O)NC1=O	–	male BALB/c mouse	plasma	intramuscular	5 mg/kg	–	44900 ng·h/mL
O=C(NO)c1ccc(CN(c2cnccn2)c2cnccn2)cc1	total compound	male C57BL/6 mouse, B16-F10 tumour	plasma	oral	200 mg/kg once daily	–	1270 ng·h/mL
C[C@H]1CNCCN1c1nccc(-c2noc3c2CCC[C@@]32CCCc3sc(N)c(C#N)c32)n1	–	mouse	plasma	po	50 mg/kg	–	42.3 µM·h
O=C(COc1cnc(N2C(=O)[C@@H]3[C@@H]4C=C[C@@H]([C@H]5C[C@@H]45)[C@@H]3C2=O)nc1)c1ccc(Cl)c(Cl)c1	–	mouse	brain	ip	10 mg/kg	–	83800 ng·min/g
COc1ccc2nc(-c3ccccn3)c(N(C)c3ccc(F)cc3)n2c1	–	CD1 mouse, male, fasted	plasma	oral	50 mg/kg	ABT 50 mg/kg	866 ng·h/mL

For quick reference, copied from above:
Compound	item	host	matrix	route	dose	added	AUC(0-last)
O=C(COc1cnc(N2C(=O)[C@@H]3[C@@H]4C=C[C@@H]([C@H]5C[C@@H]45)[C@@H]3C2=O)nc1)c1ccc(Cl)c(Cl)c1	–	mouse	brain	ip	10 mg/kg	–	83800 ng·min/g
